{"data": "Assay results collected from several papers", "note": "± gives the spread as reported."}
{"Compound": "O=C(Nc1ccc(C(F)(F)F)cc1Cl)c1cc(Cl)ccc1O", "target": "androgen receptor", "assay": "Western blot", "test system": "CWR22Rv1", "setting": "1 µM, 16 h", "endpoint": "AR protein level", "result": "inhibited"}
{"Compound": "CCCCCCCCCCCCCC(=O)N[C@@H](CO)C(=O)N[C@H](C(=O)N[C@@H](Cc1ccc(O)cc1)C(=O)N[C@@H](CCCNC(=N)N)C(=O)N[C@@H](CCCNC(=N)N)C(=O)NCC(=O)N[C@@H](C)C(=O)N[C@@H](CCCNC(=N)N)C(=O)N[C@@H](CCCNC(=N)N)C(=O)N[C@@H](Cc1c[nH]c2ccccc12)C(=O)N[C@@H](CCCNC(=N)N)C(=O)N[C@@H](CCCCN)C(=O)N[C@@H](CC(C)C)C(=O)O)[C@@H](C)CC", "target": "PKMζ", "test system": "Sprague-Dawley rat, CA1 neurons, hippocampal slices", "setting": "5 µM, 1 min, added: PKMζ 10 nM in pipette", "endpoint": "PKMζ-mediated AMPAR potentiation", "result": "inhibited"}
{"Compound": "COc1ccc(C(=O)c2c(C(=O)NCCCN(C)C)oc3ccc(Cl)cc3c2=O)cc1OC", "target": "human GPCRs other than GHSR", "assay": "β-arrestin-2 recruitment, Tango", "setting": "1 µM, 320 receptors tested", "how to read": "reference: baseline, maximum at any other receptor", "endpoint": "fold activation", "result": "< 3 fold"}
{"Compound": "Cc1sc2ncn(CC(=O)N3CCCC3)c(=O)c2c1-c1cccc(Br)c1", "target": "NMDA receptor, mouse", "assay": "single-channel current, outside-out patch", "test system": "cortical neurons", "setting": "concentration not given, holding -80 mV, added: Ca2+ 1.25 mM", "endpoint": "unitary current amplitude 1", "result": "-3.45 ± 0.59 pA"}
{"Compound": "CC[C@H](C)[C@H](NC(=O)[C@H](CC(C)C)NC(=O)[C@@H](NC(=O)[C@@H](NC(=O)[C@H](CC(C)C)NC(=O)[C@H](CCCCN)NC(=O)[C@@H](N)CCCCN)[C@@H](C)CC)[C@@H](C)O)C(=O)N[C@@H](Cc1ccccc1)C(=O)N[C@@H](CCCCN)C(=O)N[C@@H](CCCCN)C(=O)N[C@H](C(=O)N[C@@H](CCCNC(=N)N)C(=O)N[C@@H](CCC(=O)O)C(=O)N[C@@H](CCCCN)C(=O)N[C@@H](CCCCN)C(=O)N[C@@H](CCCCN)C(=O)N[C@@H](CCC(=O)O)C(=O)N[C@@H](CS)C(=O)N[C@@H](CC(C)C)C(=O)N[C@H](C(=O)O)C(C)C)[C@@H](C)O", "target": "voltage-gated sodium channel", "assay": "resurgent sodium current, kinetic model fit", "test system": "mouse CA3 neurons", "setting": "200 µM, membrane potential -30 mV", "endpoint": "rate constant kOB", "result": "64 s⁻¹"}
{"Compound": "CC(C)C[C@H](NC(=O)[C@@H]1CCC(=O)N1)C(=O)N[C@H](C(=O)N[C@@H](Cc1ccccc1)C(=O)N[C@H](C(=O)N[C@@H](CO)C(=O)N[C@@H](CO)C(=O)N[C@@H](Cc1c[nH]c2ccccc12)C(=O)NCC(N)=O)[C@@H](C)O)[C@@H](C)O", "target": "AKHR Bombyx mori EGFP", "assay": "agonist", "test system": "HEK293 stable AKHR-EGFP", "setting": "10 nM, 37 °C", "endpoint": "time to maximum internalization", "result": "≤ 30 min"}
{"Compound": "CNC(=O)C1CCN(c2ccccc2NC(=O)c2ccc(-c3cc(O)ccc3C)c(C)n2)CC1", "target": "human EPHA2/EPHA4", "assay": "phosphorylation, inhibitor, Western blot", "test system": "12Z", "setting": "15 min pretreatment, added: EFNA5 0.5 µg/mL", "how to read": "lowest concentration", "endpoint": "significant inhibitory concentration", "result": "1 nM"}
{"Compound": "O=C(c1ccc(F)cc1)N1CCCC(c2nc(-c3cccnc3)no2)C1 (stereo not shown)", "target": "mGluR5", "assay": "calcium fluorescence, positive allosteric modulator", "test system": "mGluR5-expressing cells", "setting": "added: glutamate EC20", "how to read": "reference: maximal glutamate response", "endpoint": "Emax", "result": "82 ± 7%"}
{"Compound": "CC[C@H](C)[C@H](NC(=O)[C@H](C)NC(=O)[C@@H](NC(=O)[C@@H](NC(=O)[C@H](CC(C)C)NC(=O)[C@H](CCCCN)NC(=O)[C@@H](N)CCCCN)[C@@H](C)CC)[C@@H](C)O)C(=O)N[C@@H](CC(C)C)C(=O)N[C@@H](CCCCN)C(=O)N[C@@H](CCCCN)C(=O)N[C@H](C(=O)N[C@@H](CCCNC(=N)N)C(=O)N[C@@H](CCC(=O)O)C(=O)N[C@@H](CCCCN)C(=O)N[C@@H](CCCCN)C(=O)N[C@@H](CCCCN)C(=O)N[C@@H](CCC(=O)O)C(=O)N[C@@H](CS)C(=O)N[C@@H](CC(C)C)C(=O)N[C@H](C(=O)O)C(C)C)[C@@H](C)O", "target": "voltage-gated sodium channel", "assay": "resurgent sodium current, kinetic model fit", "test system": "mouse CA3 neurons", "setting": "200 µM, membrane potential -30 mV", "endpoint": "rate constant kIO", "result": "10 s⁻¹"}
{"Compound": "COc1cc(/C=C/c2cc(C)n[nH]2)ccc1O", "target": "glutathione peroxidase", "assay": "enzyme activity", "test system": "MCF7", "setting": "25 µM, 48 h", "endpoint": "inhibition", "result": "40%"}
{"Compound": "Cn1c(=O)oc2ccc(-c3ccc(CC(C#N)NC(=O)C4CNCCCO4)c(F)c3)cc21 (stereo not shown)", "target": "neutrophil elastase (human)", "assay": "enzyme activity, inhibitor", "test system": "human, whole blood", "setting": "40 mg once daily, day 31 after discontinuation, neutrophil count-normalized", "endpoint": "inhibition", "result": "65.4%"}
{"Compound": "O=C(Nc1ccc(C(F)(F)F)cc1)c1cc(Cl)ccc1O", "target": "androgen receptor", "assay": "Western blot", "test system": "CWR22Rv1", "setting": "1 µM, 16 h", "endpoint": "AR protein level", "result": "inhibited"}
{"Compound": "COc1c(Cl)c(/C=C(\\C)C(=O)O)c(OC)c2ccccc12", "target": "NF-κB and HIF1α", "assay": "luciferase reporter", "test system": "human cells", "setting": "up to 100 µM", "endpoint": "reporter activity", "result": "inactive"}
{"Compound": "N=C(N)SCc1ccccc1CSC(=N)N", "target": "TDO (human)", "assay": "western blot", "test system": "A-172", "setting": "concentration not given", "endpoint": "protein level", "result": "no effect"}
{"Compound": "COc1ccc(N2C(=O)C=CC2=O)cc1", "target": "DPP3 (Candida albicans)", "assay": "GFP fluorescence", "test system": "Candida albicans, BWP17 DPP3-GFP", "setting": "0.5 µg/mL, 4 h", "how to read": "reference: untreated", "endpoint": "DPP3 expression", "result": "1.66 fold"}
{"Compound": "O=C(c1ccc(F)cc1)N1CCCC(c2nc(-c3ncccn3)no2)C1 (stereo not shown)", "target": "mGluR5", "assay": "calcium fluorescence, positive allosteric modulator", "test system": "mGluR5-expressing cells", "setting": "added: glutamate EC20", "how to read": "reference: maximal glutamate response", "endpoint": "Emax", "result": "15%"}
{"Compound": "CC[C@H](C)[C@H](NC(=O)[C@H](CC(C)C)NC(=O)[C@H](CCCCN)NC(=O)[C@@H](N)CCCCN)C(=O)N[C@H](C(=O)N[C@@H](Cc1ccccc1)C(=O)N[C@H](C(=O)N1CCC[C@H]1C(=O)N[C@@H](CCCCN)C(=O)N[C@@H](CCCCN)C(=O)N[C@H](C(=O)N[C@@H](CCCNC(=N)N)C(=O)N[C@@H](CCC(=O)O)C(=O)N[C@@H](CCCCN)C(=O)N[C@@H](CCCCN)C(=O)N[C@@H](CCCCN)C(=O)N[C@@H](CCC(=O)O)C(=O)N[C@@H](CS)C(=O)N[C@@H](CC(C)C)C(=O)N[C@H](C(=O)O)C(C)C)[C@@H](C)O)[C@@H](C)CC)[C@@H](C)O", "target": "voltage-gated sodium channel", "assay": "resurgent sodium current, kinetic model fit", "test system": "mouse CA3 neurons", "setting": "200 µM, membrane potential -10 mV", "endpoint": "rate constant kIO", "result": "21 s⁻¹"}
{"Compound": "O=C(c1ccc(F)cc1)N1CCCC(c2nc(-c3ccccn3)no2)C1 (stereo not shown)", "target": "mGluR5", "assay": "calcium fluorescence, positive allosteric modulator", "test system": "mGluR5-expressing cells", "setting": "added: glutamate EC20", "endpoint": "EC50", "result": "0.348 ± 0.07 µM"}
{"Compound": "CCOCCNC(=O)N1CCC[C@H](c2n[nH]c(-c3ccccc3)n2)C1", "target": "recombinant aromatase CYP19", "assay": "absorption spectroscopy", "setting": "100 µM, no androstenedione", "how to read": "reference: 416 nm", "endpoint": "Soret peak red shift", "result": "2 nm"}
{"Compound": "Cc1cc(N)c2cc(NC(=O)C(=O)Nc3ccc4nc(C)cc(N)c4c3)ccc2n1", "target": "factor Xa", "assay": "anticoagulant neutralization, chromogenic", "setting": "added: fondaparinux 0.2 IU/mL, human antithrombin III", "endpoint": "IC50", "result": "11.9 ± 0.2 µM"}
{"Compound": "CC[C@H](C)[C@H](NC(=O)[C@H](Cc1ccccc1)NC(=O)[C@@H](NC(=O)[C@@H](NC(=O)[C@H](CC(C)C)NC(=O)[C@H](CCCCN)NC(=O)[C@@H](N)CCCCN)[C@@H](C)CC)[C@@H](C)O)C(=O)N[C@@H](CC(C)C)C(=O)N[C@@H](CCCCN)C(=O)N[C@@H](CCCCN)C(=O)N[C@H](C(=O)N[C@@H](CCCNC(=N)N)C(=O)N[C@@H](CCC(=O)O)C(=O)N[C@@H](CCCCN)C(=O)N[C@@H](CCCCN)C(=O)N[C@@H](CCCCN)C(=O)N[C@@H](CCC(=O)O)C(=O)N[C@@H](CS)C(=O)N[C@@H](CC(C)C)C(=O)N[C@H](C(=O)O)C(C)C)[C@@H](C)O", "target": "voltage-gated sodium channel", "assay": "resurgent sodium current, kinetic model fit", "test system": "mouse CA3 neurons", "setting": "200 µM, membrane potential -10 mV", "endpoint": "rate constant kOB", "result": "370 s⁻¹"}
{"Compound": "CCCCCC(C)NCC(=O)O (stereo not shown)", "target": "DNA", "assay": "binding, UV-vis absorption titration", "endpoint": "midpoint concentration", "result": "794 µM"}
{"Compound": "CCCCC/C=C/C(=O)CCc1ccc(O)c(OC)c1", "target": "mAb 2-LD2", "assay": "antibody binding, indirect competitive ELISA", "setting": "added: coating antigen hapten 3-OVA", "endpoint": "IC50", "result": "3.26 ng/mL"}
{"Compound": "Cc1cc(C)nc(NC(=S)N2CCN(c3ccc(C(F)(F)F)cn3)CC2)c1", "target": "panel of other dehydrogenases", "assay": "enzyme activity", "setting": "concentration not given", "endpoint": "inhibition", "result": "inactive"}
{"Compound": "Cc1nc(C)c(C=[N+]([O-])C(C)(C)C)nc1C", "target": "mitochondrial complex I, rat", "test system": "cerebellar granule neurons, rat", "setting": "30 µM, added: MPP+", "endpoint": "complex I activity increase", "result": "27.2%"}
{"Compound": "CC[C@H](C)[C@H](NC(=O)[C@H](Cc1ccccc1)NC(=O)[C@@H](NC(=O)[C@@H](NC(=O)[C@H](CC(C)C)NC(=O)[C@H](CCCCN)NC(=O)[C@@H](N)CCCCN)[C@@H](C)CC)[C@@H](C)O)C(=O)N[C@@H](CC(C)C)C(=O)N[C@@H](CCCNC(=N)N)C(=O)N[C@@H](CCCNC(=N)N)C(=O)N[C@H](C(=O)N[C@@H](CCCNC(=N)N)C(=O)N[C@@H](CCC(=O)O)C(=O)N[C@@H](CCCCN)C(=O)N[C@@H](CCCCN)C(=O)N[C@@H](CCCCN)C(=O)N[C@@H](CCC(=O)O)C(=O)N[C@@H](CS)C(=O)N[C@@H](CC(C)C)C(=O)N[C@H](C(=O)O)C(C)C)[C@@H](C)O", "target": "voltage-gated sodium channel", "assay": "resurgent sodium current, kinetic model fit", "test system": "mouse CA3 neurons", "setting": "200 µM, membrane potential -30 mV", "endpoint": "rate constant kOB", "result": "265 s⁻¹"}
{"Compound": "CCCNCC(=O)O", "target": "DNA", "assay": "binding, UV-vis absorption titration", "setting": "concentration not given", "endpoint": "hypochromicity", "result": "45.4%"}
{"Compound": "Cc1ccc(-n2nc(C3CC3)nc2C2CCCN(C(N)=O)C2)cc1C (stereo not shown)", "target": "recombinant aromatase CYP19", "assay": "absorption spectroscopy", "setting": "100 µM, no androstenedione", "how to read": "reference: 416 nm", "endpoint": "Soret peak red shift", "result": "4 nm"}
